Measurements pooled from the literature.
Lines come from different studies, so protocols differ.
Target: Serine/threonine-protein kinase PLK1 (PLK1, Homo sapiens, UniProt P53350)
Sequence of UniProt P53350 (whole entry, looked up): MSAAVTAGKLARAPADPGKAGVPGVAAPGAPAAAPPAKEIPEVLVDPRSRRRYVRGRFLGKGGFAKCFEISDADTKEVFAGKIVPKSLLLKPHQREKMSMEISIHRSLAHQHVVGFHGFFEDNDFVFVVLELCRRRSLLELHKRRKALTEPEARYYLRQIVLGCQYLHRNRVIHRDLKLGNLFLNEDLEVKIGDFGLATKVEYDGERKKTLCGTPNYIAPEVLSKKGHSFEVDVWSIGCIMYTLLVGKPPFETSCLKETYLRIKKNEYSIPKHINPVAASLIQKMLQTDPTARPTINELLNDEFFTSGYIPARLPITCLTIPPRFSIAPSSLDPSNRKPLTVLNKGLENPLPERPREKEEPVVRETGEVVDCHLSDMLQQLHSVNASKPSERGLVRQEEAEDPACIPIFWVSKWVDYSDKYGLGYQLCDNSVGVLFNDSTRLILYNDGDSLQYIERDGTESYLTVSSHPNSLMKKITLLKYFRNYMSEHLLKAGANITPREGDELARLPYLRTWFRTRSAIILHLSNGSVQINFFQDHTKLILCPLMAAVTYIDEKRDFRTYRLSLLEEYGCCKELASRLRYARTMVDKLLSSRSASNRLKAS

CN(C)[C@H]1C[C@@]23CC[C@@]4(O2)C(=CC[C@]2(C)[C@@H](c5ccc6ccncc6c5)CC[C@H]24)C=C3[C@@H](O)[C@@H]1O
inhibition (ATP probe labelling, inhibitor, KiNativ profiling; 1 µM): -9.5%

C[C@H](NCc1ccc(-c2ccc(C(F)(F)F)cc2)cc1)C(N)=O
inhibition (cell-free assay, competition with immobilised ligand; 1 µM): 11%

O=C1NC(=O)c2c1c1cc(F)c[n+]3c1c1c2c2cc(O)ccc2[n]1[Ru-4]312([N]=C=S)[S+]3CC[S+]1CC[S+]2CC3 (stereo not drawn)
remaining activity (enzyme activity; 100 nM, human enzyme, added: 10 µM ATP; reference: untreated): 97%

CS(C)(=O)=Nc1ccc(-c2ccc(-c3nc4cc(O[C@@H]5CO[C@H]6[C@@H]5OC[C@H]6O)[nH]c4cc3F)cc2)cc1
inhibition (enzyme activity, inhibitor; 10 µM): 8%

Cc1cccc(-c2ccc3nc(NC(=O)C4CCCO4)nn3c2)c1 (stereo not drawn)
remaining activity (enzyme activity; 10 µM): 56%

CCOC(=O)[C@@H]1Cc2c(cc([N+](=O)[O-])cc2[N+](=O)[O-])[C@H](O)[C@]12C(=O)Nc1ccc(Br)cc12
remaining binding (binding, competition with immobilised ligand; 0.1 µM): 69%

Nc1ccc(/C=C/C(=O)N2CCc3c(oc4c(-c5ccc(F)cc5)cc(-c5ccc(C(=O)N6CCC(F)(F)CC6)cn5)cc34)C2)cn1
remaining binding (binding, competition with immobilised ligand; 1 µM): 100%

CC(C)[C@H]1NC(=O)C[C@H]2/C=C/CCSSC[C@@H](NC1=O)C(=O)N[C@H](Cc1cccc3ccccc13)C(=O)NCC(=O)O2
inhibition (enzyme activity, inhibitor; 10 µM): -6.6%

Cc1cccc(-c2ccc3nc(NC(=O)C4CCCCC4)nn3c2)c1
remaining activity (enzyme activity; 10 µM): 83%

A few entries again:
Cc1cccc(-c2ccc3nc(NC(=O)C4CCCCC4)nn3c2)c1
remaining activity (enzyme activity; 10 µM): 83%
